Results gathered from unrelated publications.
Every numbered part comes from another study and shows a few of its results, in no order. Changes are numbered by the printed parent chain.

Study 1 — method: DHFR PCA, deep sequencing; medium: yeast; together with: (+)-ABA 0.032 µM; reference: wild-type fitted maximum; reading: higher = stronger binding
Target: ABI1, truncated, D143A, DHFR fusion (Arabidopsis thaliana)
Setting: methotrexate growth selection, single substitutions
Parent: PYL1, truncated, DHFR fusion (Arabidopsis thaliana); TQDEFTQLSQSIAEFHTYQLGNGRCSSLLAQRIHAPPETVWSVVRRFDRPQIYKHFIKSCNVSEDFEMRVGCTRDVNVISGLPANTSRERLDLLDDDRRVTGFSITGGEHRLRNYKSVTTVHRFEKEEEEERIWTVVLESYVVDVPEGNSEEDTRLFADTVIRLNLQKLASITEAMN
Substitution | relative binding score [%]
L138T | -3.06
F56H | 4.29
V143Q | -4.16
A170N | -8.67
E130T | 32.5
E128V | 14.1
E128C | 30.7
D75T | 43.7
Y115A | -0.983
I12G | 0.235

Study 2 — target: CCNB3, cyclin fold, Cln2 fusion (human); method: yeast growth competition, sequencing; medium: yeast; setting: weak parent motif; reference: not given; reading: higher = stronger binding
Parent: PKMYT1 docking peptide (human); SFEPRNLLSLFED; partner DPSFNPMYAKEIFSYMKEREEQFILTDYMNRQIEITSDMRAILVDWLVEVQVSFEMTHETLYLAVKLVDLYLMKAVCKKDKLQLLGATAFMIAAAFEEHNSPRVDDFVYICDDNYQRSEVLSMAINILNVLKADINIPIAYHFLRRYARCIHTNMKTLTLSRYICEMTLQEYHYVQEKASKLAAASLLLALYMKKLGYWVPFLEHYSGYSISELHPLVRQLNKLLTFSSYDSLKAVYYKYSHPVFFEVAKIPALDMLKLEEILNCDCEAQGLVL
Substitution | normalised enrichment score
L10E | 1.29
L10N | 0.349
E3I | 0.209
P4G | 0.451
L7Y | 0.2
F2S | 0.0431
L8G | 0.0611
L7N | 0.249
L8C | 0.338
N6Q | 0.782
E12N | 0.587
L7S | 0.0855
S9P | 0.837
R5M | 0.409
E12H | 0.499
N6R | 0.732
L8N | 0.544

Study 3 — target: UBE2O UBC core domain (UniProt Q9C0C9); method: yeast two-hybrid; medium: yeast; setting: mostly zero background; reference: not given; reading: higher = stronger interaction
B1: TRIM2 RING domain (UniProt Q9C040); chain VRQIDKQFLICSICLERYKNPKVLPCLHTFCERCLQNYIPAHSLTLSCPVCRQTSILPEKGV
B2: RNF130 RING domain (UniProt Q86XS8); chain DKETDPDFDHCAVCIESYKQNDVVRILPCKHVFHKSCVDPWLSEHCTCPMCKLNILKALGIV
B3: MARCHF2 RING domain (UniProt Q9P0N8); chain RLLSTVIRALDTPSDGPFCRICHEGANGECLLSPCGCTGTLGAVHKSCLEKWLSSSNTSYCELCHTEFAVEKRPRPLTEWL
B4: RNF115 RING domain (UniProt Q9Y4L5); chain TQEQVDMGLECPVCKEDYTVEEEVRQLPCNHFFHSSCIVPWLELHDTCPVCRKSLNGEDSTR
B5: SHPRH RING domain (UniProt Q149N8); chain KTSGGVNPEPCPICARQLGKQWAVLTCGHCFCNECISIIIEQYSVGSHRSSIKCAICRQTTSHKEISY
B6: CBLL1 RING domain (UniProt Q75N03); chain GEKDDTPVHFCDKCGLPIKIYGRMIPCKHVFCYDCAILHEKKGDKMCPGCSDPVQRIEQCT
B7: TRIM47 RING domain (UniProt Q96LD4); chain MDGSGPFSCPICLEPLREPVTLPCGHNFCLACLGALWPHRGASGAGGPGGAARCPLCQEPFPDGLQLR
B8: NHLRC1 RING domain (UniProt Q6VVB1); chain MREAEISLLECKVCFEKFGHRQQRRPRNLSCGHVVCLACVAALAHPRTLALECPFCRRACRGCDTSD
B9: TRIM34 RING domain (UniProt Q9BYJ4); chain ILLNVQEEVTCPICLELLTEPLSLDCGHSLCRACITVSNKEAVTSMGGKSSCPVCGISYSFEHLQA
B10: RFPL3 RING domain (UniProt O75679); chain MAALFQEASSCPVCSDYLEKPMSLECGCTVCLKCINSLQKEPHGEDLLCCCCSMVSQRNKIRP
B11: ARIH1 RING domain (UniProt Q9Y4X5); chain NTRSSAQDMPCQICYLNYPNSYFTGLECGHKFCMQCWSEYLTTKIMEEGMGQTISCPAHGCDILVDDNTVM
B12: RNF32 RING domain (UniProt Q9H0A6); chain VQALRRETHECSICLAPLSAAGGQRVGAGRRSREMALLSCSHVFHHACLLALEEFSVGDRPPFHACPLCRSCYQKKILEC
Residues (chain): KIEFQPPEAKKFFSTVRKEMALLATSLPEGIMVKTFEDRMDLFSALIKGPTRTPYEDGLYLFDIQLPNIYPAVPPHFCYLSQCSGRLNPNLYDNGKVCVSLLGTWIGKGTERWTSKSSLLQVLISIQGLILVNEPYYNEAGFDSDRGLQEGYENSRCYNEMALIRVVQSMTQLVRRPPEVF
Sequence | lacZ reporter activity
EDVLSKDAGECAICLEELQQGDTIARLPCLCIYHKGCIDEWFEVNRSCPEHPSD (ZNRF2 RING domain (UniProt Q8NHG8)) | 0
B1 (TRIM2 RING domain) | 0
B2 (RNF130 RING domain) | 0
B3 (MARCHF2 RING domain) | 0
B4 (RNF115 RING domain) | 0
EIKDYKARLTCPCCNMRKKDAVLTKCFHVFCFECVKTRYDTRQRKCPKCNAAFGANDFHR (RNF20 RING domain (UniProt Q5VTR2)) | 0
KITELNPHLMCALCGGYFIDATTIVECLHSFCKTCIVRYLETNKYCPMCDVQVHKTRPLL (PCGF2 RING domain (UniProt P35227)) | 0
B5 (SHPRH RING domain) | 0
B6 (CBLL1 RING domain) | 0
B7 (TRIM47 RING domain) | 0
FLSKVEETFQCICCQELVFRPITTVCQHNVCKDCLDRSFRAQVFSCPACRYDLGRSYAMQ (UHRF1 RING domain (UniProt Q96T88)) | 0
PLRRLQEEKLCKICMDRHIAVVFIPCGHLVTCKQCAEAVDRCPMCSAVIDFKQRVF (BIRC8 RING domain (UniProt Q96P09)) | 0
B8 (NHLRC1 RING domain) | 0
B9 (TRIM34 RING domain) | 0
B10 (RFPL3 RING domain) | 0
B11 (ARIH1 RING domain) | 0
B12 (RNF32 RING domain) | 0
AAQLLEEKLTCAICLGLYQDPVTLPCGHNFCGACIRDWWDRCGKACPECREPFPDGAELR (TRIM65 RING domain (UniProt Q6PJ69)) | 0

Study 4 — method: RNA Bind-n-Seq; form: RNA; medium: in vitro; concentration: 365 nM; reference: no-protein control; reading: higher = stronger binding
Target: RNA binding protein fox-1 homolog 2, RRM domain, GST-SBP tag (RBFOX2, Homo sapiens, UniProt O43251-10, residues 100-194)
Setting: natural RNA segment, single round, ends assumed
Target sequence (chain): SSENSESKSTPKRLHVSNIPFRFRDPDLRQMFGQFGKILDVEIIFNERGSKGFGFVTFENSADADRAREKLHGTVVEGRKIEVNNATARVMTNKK
Sequence | RBNS enrichment (R)
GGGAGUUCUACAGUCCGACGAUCAUAUACAAACAUGUAUGUAUACAUGACCUUAAUGGAUCAUAGAAUUGCAGUCAUUUGGUGCUCUGCUAACCAUUUAUAUAAAACUUAAAAACAAGAGAAAAGAAAAAUCAUGGAAUUCUCGGGUGCCAA | 0.418
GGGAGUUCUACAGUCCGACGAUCUGUUAGCUACCCAUAAGAAUGCUGUUUGCUGCAGUUCUGUGUCCUGUGCUUGGAUGCUUUUUAUAAGAGUUGUCAUUGUUGGAAAUUCUUAAAUAAAACUGAUUUAAAUAUGGAAUUCUCGGGUGCCAA | 3.14
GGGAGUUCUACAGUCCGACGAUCCAUAAGGUUAAACAAACUAGGUGCUUGUAAAUAAUUUAUUACAGUUUACUCUAUCGCAUUUCUGUAACAUGAAAUGCAUGCCCUUCUUCAGGGGAAGACUGUGGUCAAGUUGGAAUUCUCGGGUGCCAA | 0.456
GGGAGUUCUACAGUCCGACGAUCUUCUAGCCGUUCUGAUCUGUAAGCUAGAGGCUGGAACCCAAAACCACAUACAUUUUUAAAAUCGAGUAUAGAAUUCACCAGGGUUGAAAAUGACUGGCAGACAAUAUAUGUGGAAUUCUCGGGUGCCAA | 0.86
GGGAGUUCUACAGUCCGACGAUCCCAUGGCCGCUCACCUUCCAUGAGACCACUCUUGUCACAUUGCUUUCCUUUAAGAUGCAUAUGCUUAACUAUUUGCAGUGUAUUCCUCAACAUAAACUUGUCUGACAGCAUGGAAUUCUCGGGUGCCAA | 0.548
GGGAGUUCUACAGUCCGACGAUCCUGCUGACCUCAGGGUCACAGUUGAGUCAUUUGCCAGUUGACGGAGCAAGUUUGACCUUGGUUCUGUUGCUGAAGCAAAUUUGGAACUUUUCUGUCUCAGUGUGAUCCACUGGAAUUCUCGGGUGCCAA | 0.209
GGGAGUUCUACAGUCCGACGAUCAGGUAGAGACAGGAAGAUGAGAAGUGCAAAGUAGUCUCGGCUAGGUAGUGUCAGGACUAUCCUGUGCUCUAUGACAUUCUAUCUCUAAAAAUGAAGCAACACUUUUUCUGUGGAAUUCUCGGGUGCCAA | 0.714
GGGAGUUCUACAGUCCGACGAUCAGAGGCCUUUAGUCUAGAUUCUGCCAGCUGUGCCACACUCUGCACUAAAGAUAUCAGAGCUCUUAGUGUUACUUAGAGGAGAGUACAAGCAAGUCGGACCUCUCAGAACUUGGAAUUCUCGGGUGCCAA | 0.315
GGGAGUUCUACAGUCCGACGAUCCCCCCAGUGCAUUUCUUCACAGUGAAGAAAAGGAAAAAUUUCAAAACAAUACUUUUUGUAUUAUCUAGAGUCAGCCCACUUCAACAGAUUUUUCUCUCACUAACUGAAAGUGGAAUUCUCGGGUGCCAA | 0.72
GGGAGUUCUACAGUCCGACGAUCUGUUAACCUGGAGGAAGUCUCUGGUAUGGAGUUCUGAGAGCUUAAGAGCUAAACAUGAGUUUAGACACACAAGAUUCUAAAAUGCAAAUGUUUAUUUUGAAGCAGGCAUUUGGAAUUCUCGGGUGCCAA | 0.336
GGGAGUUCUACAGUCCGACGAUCCUACUGUUUCUUCAUGUAAUGACCAAAAGAGUCCCACCAGCUCCAGGCAGAGCUUGUGGAGAUUCAUGAAAGAGUCAUAGCCAGUUUGGCAUGCAGAGGUCUUCAGUCUUUGGAAUUCUCGGGUGCCAA | 0.236
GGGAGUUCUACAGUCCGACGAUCUCAGUAUAGAUUGCCAGUAUUGUUAAGAGUAUCCAAAGGCCUUUCUAGAUGGAGACAGAAUAACUGACUUGAACAUACAGUGUGCCUGUAAGUGUCCAGGCUCAGAGCUGUGGAAUUCUCGGGUGCCAA | 0.289

A few entries again (study 3):
Sequence | lacZ reporter activity
B1 (TRIM2 RING domain) | 0
FLSKVEETFQCICCQELVFRPITTVCQHNVCKDCLDRSFRAQVFSCPACRYDLGRSYAMQ (UHRF1 RING domain (UniProt Q96T88)) | 0
B3 (MARCHF2 RING domain) | 0
B11 (ARIH1 RING domain) | 0
